Experimental data pooled from the literature.
Every numbered part comes from another study and shows a few of its results, in no order.
UniProt P35916, sequence (whole entry, looked up): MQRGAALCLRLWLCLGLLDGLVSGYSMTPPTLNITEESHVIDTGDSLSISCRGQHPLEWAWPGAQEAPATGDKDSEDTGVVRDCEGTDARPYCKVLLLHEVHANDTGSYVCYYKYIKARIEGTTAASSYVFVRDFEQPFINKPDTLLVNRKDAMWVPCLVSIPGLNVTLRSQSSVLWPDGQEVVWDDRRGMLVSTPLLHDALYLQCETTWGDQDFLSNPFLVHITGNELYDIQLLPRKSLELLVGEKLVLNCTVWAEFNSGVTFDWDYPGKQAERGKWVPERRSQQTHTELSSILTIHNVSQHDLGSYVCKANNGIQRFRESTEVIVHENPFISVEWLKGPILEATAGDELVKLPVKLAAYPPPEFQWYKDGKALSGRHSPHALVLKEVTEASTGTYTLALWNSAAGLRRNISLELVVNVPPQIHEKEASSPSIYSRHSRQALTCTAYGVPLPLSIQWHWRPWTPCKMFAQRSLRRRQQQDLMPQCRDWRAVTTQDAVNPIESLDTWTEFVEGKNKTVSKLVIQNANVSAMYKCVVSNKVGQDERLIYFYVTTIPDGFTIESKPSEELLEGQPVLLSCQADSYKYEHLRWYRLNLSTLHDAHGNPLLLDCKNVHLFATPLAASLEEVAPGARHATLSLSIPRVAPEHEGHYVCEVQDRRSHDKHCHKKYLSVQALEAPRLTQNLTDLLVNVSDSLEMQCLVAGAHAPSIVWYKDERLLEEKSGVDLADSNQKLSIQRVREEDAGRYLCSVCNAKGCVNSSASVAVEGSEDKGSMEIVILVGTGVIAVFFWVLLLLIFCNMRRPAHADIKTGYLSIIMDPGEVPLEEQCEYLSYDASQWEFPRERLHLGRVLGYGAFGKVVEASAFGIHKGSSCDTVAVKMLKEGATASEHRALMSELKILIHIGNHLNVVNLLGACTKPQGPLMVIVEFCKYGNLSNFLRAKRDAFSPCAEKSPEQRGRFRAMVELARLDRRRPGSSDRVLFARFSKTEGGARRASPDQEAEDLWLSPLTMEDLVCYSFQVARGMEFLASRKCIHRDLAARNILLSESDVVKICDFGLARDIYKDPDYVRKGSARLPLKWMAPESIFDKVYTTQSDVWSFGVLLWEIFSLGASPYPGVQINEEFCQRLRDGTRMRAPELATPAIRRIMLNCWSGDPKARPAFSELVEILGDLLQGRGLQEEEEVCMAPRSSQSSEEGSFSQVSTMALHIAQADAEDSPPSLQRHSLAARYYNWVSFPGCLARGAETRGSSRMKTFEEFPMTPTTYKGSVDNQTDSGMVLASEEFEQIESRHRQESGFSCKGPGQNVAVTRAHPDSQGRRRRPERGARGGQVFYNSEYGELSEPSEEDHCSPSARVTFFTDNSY

Block 1
Target: PABPC1L2, full length, GST fusion (mouse, UniProt A0ABA7IW68)
Method: RNAcompete
Form: RNA
Medium: in vitro
Concentration: 20 nM
Notes: 7-mer, probes averaged, single round
Reference: mean of 7-mers
Reading: higher = stronger binding
Quantity: 7-mer Z-score
Residues (chain): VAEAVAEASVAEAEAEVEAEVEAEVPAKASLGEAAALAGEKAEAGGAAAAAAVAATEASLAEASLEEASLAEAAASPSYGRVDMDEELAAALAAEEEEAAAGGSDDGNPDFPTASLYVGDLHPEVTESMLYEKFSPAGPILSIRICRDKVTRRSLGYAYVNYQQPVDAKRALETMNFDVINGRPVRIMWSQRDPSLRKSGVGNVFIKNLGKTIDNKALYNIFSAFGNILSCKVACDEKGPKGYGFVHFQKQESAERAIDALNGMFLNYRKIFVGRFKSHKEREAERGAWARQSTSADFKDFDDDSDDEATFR
CUACUGA: -0.231
GGAGGUU: 0.0714
UGAUCAU: -0.124
CCCUCGG: -0.441
UGAAAGG: -0.0319
GCAAACC: -0.108
GGUAGAA: 0.389
AUGCAAG: 0.0352

Block 2
Target: Cyclic AMP-dependent transcription factor ATF-1 (ATF1, Homo sapiens, UniProt P18846, residues 1-271, full length assumed)
Method: protein-binding microarray
Form: double-stranded DNA, one strand shown
Medium: in vitro
Concentration: not given
Notes: k-mer, scored over probes, only values ≥0.25
Reading: higher = stronger binding
Quantity: E-score
Target sequence (chain): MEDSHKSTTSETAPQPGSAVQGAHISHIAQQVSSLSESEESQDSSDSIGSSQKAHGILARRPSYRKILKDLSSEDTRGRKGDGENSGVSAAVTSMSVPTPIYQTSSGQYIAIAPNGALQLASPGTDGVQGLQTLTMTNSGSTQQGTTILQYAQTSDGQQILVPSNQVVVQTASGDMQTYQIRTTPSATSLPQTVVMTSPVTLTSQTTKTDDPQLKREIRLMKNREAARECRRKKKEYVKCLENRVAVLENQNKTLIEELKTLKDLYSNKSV
CACCCCA: 0.252
CGTACGA: 0.256
GTCACGA: 0.363
GTCACAC: 0.362
CGTATAA: 0.262
AGATGAC: 0.331
GACGCGA: 0.275
GCGTGTA: 0.28

Single results of other studies
KRT8 (Homo sapiens, UniProt P05787)  cross-linked residues (MAP4K3 (Homo sapiens, UniProt Q8IVH8); cross-linking MS; cell fractions; added: DSSO): S258 to T327
Cc1ccc(NC(=O)c2ccc(CN3CCN(C)CC3)cc2)cc1Nc1nccc(-c2cccnc2)n1  remaining activity (FLT4 (Homo sapiens, UniProt P35916); enzyme activity, inhibitor; 0.5 µM; reference: control): 98.9%
TRIP4 (Homo sapiens, UniProt Q15650)  cross-linked residues (CORO1C (Homo sapiens, UniProt Q9ULV4); cross-linking MS; cell fractions; added: DSSO): K308 to K398
PLRG1 (Homo sapiens, UniProt O43660)  cross-linked residues (SNW1 (Homo sapiens, UniProt Q13573); cross-linking MS; cell fractions; added: DSSO): K363 to S154
SYNCRIP (Homo sapiens, UniProt O60506)  cross-linked residues (HNRNPD (Homo sapiens, UniProt Q14103); cross-linking MS; cell fractions; added: DSSO): K363 to T193

A few entries again (block 1):
GGAGGUU: 0.0714
UGAUCAU: -0.124
CCCUCGG: -0.441
